Experimental data collected from several papers.
Numbers after ± are the reported error.

| Compound | test | test system | setting | tissue uptake |
| --- | --- | --- | --- | --- |
| CC[C@H](C)[C@H](NC(=O)[C@H](CCCCN)NC(=O)CNC(=O)[C@H](CC(C)C)NC(=O)[C@H](Cc1ccccc1)NC(=O)[C@H](CCCCN)NC(=O)[C@H](CO)NC(=O)[C@H](Cc1ccccc1)NC(=O)[C@H](Cc1c[nH]c2ccccc12)NC(=O)[C@H](CCC(N)=O)NC(=O)[C@@H](NC(=O)[C@H](Cc1ccccc1)NC(=O)CCCCCNC(=O)CN1CCN(CC(=O)O)CCN(CC(=O)O)CCN(CC(=O)O)CC1)C(C)C)C(=O)N[C@@H](CCC(=O)O)C(=O)N1CCC[C@H]1C(=O)N[C@@H](CC(=O)O)C(=O)N[C@H](C(=O)N[C@@H](CO)C(=O)N[C@@H](CCC(N)=O)C(=O)N[C@H](C(=O)N[C@@H](CCC(N)=O)C(=O)N[C@@H](CC(=O)O)C(=O)N1CCC[C@H]1C(=O)N[C@@H](CC(N)=O)C(=O)N[C@@H](CC(=O)O)C(=O)N[C@@H](CCC(N)=O)C(=O)N[C@@H](Cc1ccc(O)cc1)C(=O)N[C@@H](CCC(=O)O)C(=O)N1CCC[C@H]1C(=O)N[C@@H](Cc1ccccc1)C(=O)O)C(C)C)C(C)C [copper-64 labelled] | – | C57BL/6 male mouse, tumour-naive, lung | 24 h | 6.72 ± 0.6 %ID/g |
| CC[C@H](C)[C@H](NC(=O)[C@H](CCCNC(=N)N)NC(=O)[C@H](CCCCN)NC(=O)[C@H](Cc1ccc(O)cc1)NC(=O)[C@H](CC(=O)O)NC(=O)[C@H](C)NC(=O)CNC(=O)CCOCCOCCOCCNC(=O)CN1CCN(CC(=O)O)CCN(CC(=O)O)CCN(CC(=O)O)CC1)C(=O)N[C@H](C(=O)N[C@H](C(=O)N[C@@H](CCCCN)C(=O)N[C@H](C(=O)N[C@@H](CC(N)=O)C(N)=O)C(C)C)C(C)C)[C@@H](C)O [copper-64 labelled] | ex vivo gamma counting | C57BL/6J male mice, B16-F10 tumour, pancreas | intravenous, 1.85 MBq, 20 min | 0.799 ± 0.068 %ID/g |
| CC[C@H](C)[C@H](NC(=O)[C@@H](Cc1c[nH]c2ccccc12)NC(=O)[C@@H]1CCCN1C(=O)[C@H](CCCCN)NC(=O)[C@H](CCCCN)NC(=O)CCNC(=O)CCNC(=O)CN1CCN(CC(=O)O)CCN(CC(=O)O)CCN(CC(=O)O)CC1)C(=O)N[C@@H](C[Si](C)(C)C)C(=O)O [gallium-68 labelled] | – | nude mouse HT-29 xenograft, heart | 90 min | 0.3 ± 0.28 %ID/g |
| O=C(CN1CCN(CC(=O)NCP(=O)([O-])[O-])CCN(CC(=O)NCP(=O)([O-])[O-])CCN(CC(=O)NCP(=O)([O-])[O-])CC1)NCP(=O)([O-])[O-].[Gd+3] | – | Sprague-Dawley rat, muscle | intravenous (tail vein), dose not given, 2 h | 0.021 ± 0.015 % injected dose/g |
| CC(C)C[C@@H](NC(=O)[C@@H](CCCNC(=N)N)NC(=O)[C@@H](Cc1c[nH]cn1)NC(=O)[C@@H](Cc1c[nH]c2ccccc12)NC(=O)[C@@H](Cc1c[nH]cn1)NC(=O)[C@@H](Cc1ccccc1)NC(=O)[C@H](NC(=O)[C@@H](Cc1ccc(O)cc1)NC(=O)CNC(=O)CNC(=O)CCOCCOCCOCCNC(=O)CN1CCN(CC(=O)O)CCN(CC(=O)O)CC1)[C@H](C)O)C(=O)N[C@H](CC(N)=O)C(=O)N1CCC[C@@H]1C(=O)O [gallium-68 labelled] | gamma counting | C57BL/6 mice, male, tumor | intravenous, 1.85 MBq, 30 min | 2.68 ± 0.34 %ID/g |
| C[C@H](O)[C@@H](NC(=O)[C@H]1CCCN1C(=O)[C@@H](CCCCN)NC(=O)[C@@H](CO)NC(=O)[C@@H](Cc1ccc(O)cc1)NC(=O)[C@@H](CC(N)=O)NC(=O)CCOCCOCCOCCNC(=O)CN1CCN(CC(=O)O)CCN(CC(=O)O)CCN(CC(=O)O)CC1)C(=O)N[C@H](CC(=O)O)C(=O)N[C@H](CCCNC(=N)N)C(=O)N[C@H](CCC(N)=O)C(=O)N[C@H](Cc1ccc(O)cc1)C(=O)N[C@H](Cc1c[nH]cn1)C(=O)N[C@H](Cc1ccccc1)C(N)=O [copper-64 labelled] | ex vivo gamma counting | C57BL/6J mouse, normal, small intestine | intravenous, 1.85 MBq, 60 min | 0.89 ± 0.08 %ID/g |
| CN1Cc2cc(Cl)ccc2-n2c(nnc2C2CCN(c3cccc([18F])n3)CC2)C1 | – | C57BL/6 mouse male, small intestine | intravenous, dose not given, 30 min, with: blocking agent 10 mg/kg | 12.9 ± 8.7 %ID/g |
| CSCC[C@H](NC(=O)CNC(=O)[C@H](CCCCN)NC(=O)[C@H](CC(C)C)NC(=O)[C@@H]1CCCN1C(=O)[C@H](CO)NC(=O)[C@H](Cc1c[nH]cn1)NC(=O)[C@H](Cc1c[nH]c2ccccc12)NC(=O)[C@H](CCCNC(=N)N)NC(=O)[C@H](CC(C)C)NC(=O)[C@H](CCCNC(=N)N)NC(=O)[C@H](Cc1c[nH]c2ccccc12)NC(=O)[C@H](CS)NC(=O)CCCCCNC(=O)CN1CCN(CC(=O)O)CCN(CC(=O)O)CCN(CC(=O)O)CC1)C(=O)O [copper-64 labelled] | – | male C57BL/6J mice, B16-F10 tumour, small intestine | intravenous, 1.85 MBq, 30 h | 2.71 %ID/g |

Repeated from above:
| Compound | test | test system | setting | tissue uptake |
| --- | --- | --- | --- | --- |
| CSCC[C@H](NC(=O)CNC(=O)[C@H](CCCCN)NC(=O)[C@H](CC(C)C)NC(=O)[C@@H]1CCCN1C(=O)[C@H](CO)NC(=O)[C@H](Cc1c[nH]cn1)NC(=O)[C@H](Cc1c[nH]c2ccccc12)NC(=O)[C@H](CCCNC(=N)N)NC(=O)[C@H](CC(C)C)NC(=O)[C@H](CCCNC(=N)N)NC(=O)[C@H](Cc1c[nH]c2ccccc12)NC(=O)[C@H](CS)NC(=O)CCCCCNC(=O)CN1CCN(CC(=O)O)CCN(CC(=O)O)CCN(CC(=O)O)CC1)C(=O)O [copper-64 labelled] | – | male C57BL/6J mice, B16-F10 tumour, small intestine | intravenous, 1.85 MBq, 30 h | 2.71 %ID/g |
